# Earlier results that unrelated publications cite.
# Each numbered part shows a few of the values that one paper quotes.

# Series 1
# Target: dopamine transporter
Structure (SMILES),IC50
COc1ccc2c(c1)c(CC(=O)O)c(C)n2C(=O)c1ccc(Cl)cc1,> 10000 nM
C[C@@H]1C[C@H]2[C@@H]3CCC4=CC(=O)C=C[C@]4(C)[C@@]3(F)[C@@H](O)C[C@]2(C)[C@@]1(O)C(=O)CO,> 10000 nM
Cc1nccn1CC1CCc2c(c3ccccc3n2C)C1=O (stereo not shown),> 10000 nM

# Series 2
# Organism: Plasmodium falciparum
# Effect on: parasite growth
# Tested at: concentration not given
Compound,antiparasitic activity
Nc1c2c(nc3ccccc13)CCCC2,active
Brc1c(NC2=NCCN2)ccc2nccnc12,active
CN/C(=N/CCSCc1nc[nH]c1C)NC#N,active
Nc1nc2ccc(Cl)cc2c2nc(-c3ccco3)nn12,active
Cn1cnc([N+](=O)[O-])c1Sc1ncnc2nc[nH]c12,active
NCCc1ccc(O)c(O)c1,active
CC(C)NCC(O)COc1ccc(CCOCC2CC2)cc1 (stereo not shown),active
Cc1cccc(C)c1OCC(C)N (stereo not shown),active
CNCCCC12CCC(c3ccccc31)c1ccccc12,active
CNCCC=C1c2ccccc2CCc2ccccc21,active
OC(CCN1CCCCC1)(c1ccccc1)C1CCCCC1 (stereo not shown),active
COc1cc(Cc2cnc(N)nc2N)cc(OC)c1OC,active

# Other studies, line by line
SMILES,tested on,assay,test system,setting,scale,measurement,result
CC(=O)N[C@H]1[C@@H](OP(=O)(O)OP(=O)(O)OC[C@H]2O[C@@H](n3ccc(=O)[nH]c3=O)[C@H](O)[C@@H]2O)O[C@H](CO)[C@@H](O)[C@@H]1O,P2Y14 receptor,agonist,,,,EC50,~190 nM
COc1cc(N[C@@H]2CCCC[C@]2(O)C(F)(F)F)ccc1F,TRPA1,biochemical,,,,IC50,> 25000 nM
CN(C)CC/C=C1/c2ccccc2Sc2ccc(Cl)cc21,MCF7,"microarray, Connectivity Map, refers to: MAFF mRNA",,"concentration not given, 6 h",baseline: DMSO,fold change,7.83
CN(C)c1ncnc(-c2ccc3nc(Nc4cc(CN5CCN(C(=O)CC(F)(F)F)CC5)ccn4)[nH]c3c2)c1Cl,TBK1,,,low ATP,,IC50,1140 nM
O=C(c1cccnc1-c1ccncc1)N1CCC(O)(Cc2ccccc2)CC1,human cholesterol 24-hydroxylase,"enzyme activity, inhibitor",,,,IC50,4.5 nM
[Zn],glycine receptor,positive modulator,,,,concentration of peak potentiation,~1 µM
O=C(O)[C@H]1O[C@H](OP(=O)(O)OP(=O)(O)OC[C@H]2O[C@@H](n3ccc(=O)[nH]c3=O)[C@H](O)[C@@H]2O)[C@H](O)[C@@H](O)[C@@H]1O,P2Y14 receptor,agonist,,,,EC50,~60 nM
CCCCCCCCNC(C)C(O)c1ccc(SC(C)C)cc1 (stereo not shown),MCF7,"microarray, refers to: STX5 mRNA",,concentration not given,baseline: DMSO,log2 fold change,2.18
CC(C)C[C@H](NC(=O)[C@H](Cc1cccc2ccccc12)NC(=O)OCc1ccccc1)C(=O)N[C@H](C=O)C[C@@H]1CCNC1=O,Norwalk virus,viral replication,"HG23, GI.1 replicon",,,EC50,40 nM
CC1CCN(c2ccnc(NCc3cn(C)cn3)n2)CC1,HEXB,,,,,IC50,> 10000 nM

# Excerpt of the above (series 2):
Compound,antiparasitic activity
NCCc1ccc(O)c(O)c1,active
CC(C)NCC(O)COc1ccc(CCOCC2CC2)cc1 (stereo not shown),active
Cc1cccc(C)c1OCC(C)N (stereo not shown),active
